Experimental data collected from several papers.
Numbered parts are unrelated; each lists some results of a single study. Positions count from the first letter of the parent shown.

Block 1 — technique: protein binding microarray; form: double-stranded DNA, one strand shown; matrix: in vitro; tested at: not given; baseline: not given; direction: higher = stronger binding
Target: Histone acetyltransferase KAT6A, winged helix 2, GST fusion (KAT6A, Homo sapiens, UniProt Q92794, residues 85-181)
Setting: 8-mer, flanks averaged, mean of 2 arrays, mostly near background
Target sequence (chain): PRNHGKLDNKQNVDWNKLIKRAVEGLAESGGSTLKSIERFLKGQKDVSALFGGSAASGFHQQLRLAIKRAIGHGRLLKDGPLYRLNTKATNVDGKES
Oligonucleotide | E-score
CACGATGG | -0.148
CGCATTAG | 0.0622
ACTCGTGG | -0.126
AAATTAAT | 0.172
ATCTTAAG | -0.0539
CATGTAGG | -0.111
CGTGAGCA | 0.0728
ATATAAGA | -0.0417
CAGTAAAG | -0.1
CAACGACA | 0.0531
ATTCAATG | 0.0976
ACTCTTGC | -0.169
AGGCCTAT | -0.1
GAGGCGCA | 0.0664
TGGATCCA | 0.109
ACCCGACT | -0.0578
ACGATTCT | -0.0871
GGGCTGTA | -0.173
ATCCTCAA | -0.0301
CTTGAGTC | -0.0936
CCTAGGGA | 0.0398

Block 2 — technique: protein-binding microarray; form: double-stranded DNA, one strand shown; matrix: in vitro; tested at: 2540 nM top; setting: 60-bp whole probe; together with: salmon DNA 0.4 mg/ml; baseline: random background probes; direction: higher = stronger binding; all sequences stand within: GCCTAGCAC … GTCTTGATTCGCTTGACGCTGCTG
Target: Interferon regulatory factor 3, full length, phosphomimetic (IRF3, Homo sapiens, UniProt Q14653, residues 1-427, S386D/S396D/S398D/S402D/T404D/S405D)
Residues (chain): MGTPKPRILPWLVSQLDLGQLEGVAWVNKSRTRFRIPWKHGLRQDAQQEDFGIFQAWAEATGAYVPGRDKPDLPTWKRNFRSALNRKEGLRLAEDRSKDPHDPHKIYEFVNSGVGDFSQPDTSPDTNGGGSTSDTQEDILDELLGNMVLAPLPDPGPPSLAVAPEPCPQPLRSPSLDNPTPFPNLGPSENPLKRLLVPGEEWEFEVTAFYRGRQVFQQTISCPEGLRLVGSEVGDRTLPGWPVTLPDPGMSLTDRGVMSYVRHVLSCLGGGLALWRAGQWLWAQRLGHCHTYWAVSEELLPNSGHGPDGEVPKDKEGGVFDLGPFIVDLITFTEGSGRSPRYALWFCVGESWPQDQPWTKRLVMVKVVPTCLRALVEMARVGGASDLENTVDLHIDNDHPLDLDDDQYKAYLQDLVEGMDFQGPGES
Oligonucleotide | fitted relative affinity [z-score]
TTAGATTCCATTTTCGATTAGTGCTAG | 6.38
TCAAATGTCCTCCTCTCACTGTGCTAG | 0.739
TTAGATATCCGGTATCGATTAGTGCTA | 1.18
GTCGGTTTCGGTTCCGGGACGTGCTAG | 10.9
GACGATTTCAGTTTCGAGAAGTGCTAG | 4.4
TCAGGTATCGACTATCGGTTAGTGCTA | 0.663
CTATATTTGCTTCAGGTTTAGTGCTAG | 0.488
GTCTCTATCAAAAATACAAAAGTGCTA | 0.685
AGTATGTTCACTATTTAAGGGTGCTAG | 0.837
CATCCGTTTCTTCTAGACTTGTGCTAG | 2.96
TTAGGTATCGGATTTCGGTTAGTGCTA | 3.93
TCATTTTTAGATATCTTACTGTGCTAG | 1.67
GACGTTATCGACACTGGGGACGTGCTA | -0.0523
GACTGTTTCGGGTATCGGGACGTGCTA | 3.96
GACGGACTGGACCCTGGGGACGTGCTA | -0.81
TTAGGTACCGGTTTCGGTTAGTGCTAG | 6.01
TTAGAACTGAGACTGGTTTAGTGCTAG | -0.35
TTAGATATCAGCCTCGATTAGTGCTAG | -0.171
TCAGTTTTCTAAACCATACTGTGCTAG | 2.64

Block 3 — technique: DHFR PCA, deep sequencing; matrix: yeast; together with: (+)-ABA 17 µM; baseline: wild-type fitted maximum; direction: higher = stronger binding
Target: ABI1, truncated, D143A, DHFR fusion (Arabidopsis thaliana)
Setting: methotrexate growth selection, single substitutions
Parent: PYL1, truncated, DHFR fusion (Arabidopsis thaliana); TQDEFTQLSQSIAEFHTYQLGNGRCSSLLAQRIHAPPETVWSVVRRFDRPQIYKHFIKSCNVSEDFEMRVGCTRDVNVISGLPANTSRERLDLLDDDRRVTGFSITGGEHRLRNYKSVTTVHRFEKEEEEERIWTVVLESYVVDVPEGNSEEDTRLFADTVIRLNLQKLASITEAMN; partner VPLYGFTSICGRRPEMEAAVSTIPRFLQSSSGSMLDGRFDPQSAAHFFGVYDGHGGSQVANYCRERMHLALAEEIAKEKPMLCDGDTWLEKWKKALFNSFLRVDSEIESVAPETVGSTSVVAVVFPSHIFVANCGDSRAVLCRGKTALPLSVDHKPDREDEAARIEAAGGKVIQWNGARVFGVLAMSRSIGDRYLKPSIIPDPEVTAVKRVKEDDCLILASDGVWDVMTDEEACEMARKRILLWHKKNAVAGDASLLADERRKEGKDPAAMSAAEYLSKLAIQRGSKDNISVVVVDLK
Change | relative binding score
V137H | -23.7%
M176G | 84.1%
T119E | 4.76%
Q51L | 11.6%
S11G | 64.1%
I172D | -16.4%
L169S | -8.17%
V62S | 17.3%
D97S | 90.2%

Block 4 — target: CCNF, cyclin fold, Cln2 fusion (human); technique: yeast growth competition, sequencing; matrix: yeast; setting: strong parent motif; baseline: not given; direction: higher = stronger binding
Parent: E2F1 docking peptide (human); PPVKRRLDLETDH; partner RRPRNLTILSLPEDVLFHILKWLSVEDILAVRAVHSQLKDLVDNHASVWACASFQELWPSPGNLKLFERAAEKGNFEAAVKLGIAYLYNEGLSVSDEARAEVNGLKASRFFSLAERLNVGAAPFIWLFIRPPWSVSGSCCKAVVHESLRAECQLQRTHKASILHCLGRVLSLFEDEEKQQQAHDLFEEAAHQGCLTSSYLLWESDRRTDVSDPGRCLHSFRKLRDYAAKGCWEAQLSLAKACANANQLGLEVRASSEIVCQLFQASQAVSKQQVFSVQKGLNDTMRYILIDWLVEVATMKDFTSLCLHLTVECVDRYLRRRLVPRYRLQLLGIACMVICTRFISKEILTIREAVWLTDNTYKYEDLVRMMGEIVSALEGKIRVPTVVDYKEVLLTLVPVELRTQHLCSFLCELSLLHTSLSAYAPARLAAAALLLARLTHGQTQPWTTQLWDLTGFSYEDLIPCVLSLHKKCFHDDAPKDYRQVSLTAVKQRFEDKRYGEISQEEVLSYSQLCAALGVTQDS
Change | normalised enrichment score
PPVKRRLDLECDH [T11C] | 6.23
PPVKRRLDLETVH [D12V] | 7.43
PPVKRTLDLETDH [R6T] | 2.37
PDVKRRLDLETDH [P2D] | 5.47
PPEKRRLDLETDH [V3E] | 2.51
PPVKRRLDLETDL [H13L] | 7.03
PPYKRRLDLETDH [V3Y] | 3.47
SPVKRRLDLETDH [P1S] | 2.85
PPVKRRTDLETDH [L7T] | 0.185
PPVKRRLDLETDE [H13E] | 6.8
PPVKRRLHLETDH [D8H] | 7.11
PPVKRRLDLYTDH [E10Y] | 7.44
PPVKRRIDLETDH [L7I] | 1.92
PPVKRRLDLEGDH [T11G] | 6.09
PPVKRRCDLETDH [L7C] | 0.286
PPVKRRLDLETDC [H13C] | 6.71
PPVTRRLDLETDH [K4T] | 1.92
PPVKRRLDLETDP [H13P] | 6.35
PPVKRRLMLETDH [D8M] | 8.01
PPVKRRLDLATDH [E10A] | 7.14
PLVKRRLDLETDH [P2L] | 4.46
PPVMRRLDLETDH [K4M] | 4.99
PPVKRRMDLETDH [L7M] | 0.788
PPVKRRLDLETHH [D12H] | 7.08

Block 5 — target: FOSL1, bZIP domain (human); technique: DHFR protein complementation; matrix: yeast; baseline: wild-type JUN-FOS pair; direction: higher = stronger binding
Setting: single substitutions, most at no-binding floor
Parent: JUN, bZIP domain (human); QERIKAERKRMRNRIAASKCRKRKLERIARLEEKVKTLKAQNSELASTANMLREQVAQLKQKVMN; partner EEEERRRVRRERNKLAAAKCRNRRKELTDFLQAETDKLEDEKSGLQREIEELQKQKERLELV
Change | binding fitness [natural log]
L59R | -1.37
T48P | -1.37
A40I | -0.598
A57D | -0.452
A46K | -0.246
L31Q | -0.812
E33S | -0.587
L31M | -0.263
T48G | -1.21
L52W | -1.48
A49C | -0.585
L45E | -1.45
L59P | -1.46
I28A | -0.683
Q41A | -0.597
Q55R | -0.592
A40S | -0.488
L31R | -1.26
L45R | -1.38
E54I | -0.599
L52V | -1.22
E33T | -0.673
E32S | -0.242
M51N | -0.514
S43Y | -0.542

A few entries again (block 2):
Oligonucleotide | fitted relative affinity [z-score]
TCAAATGTCCTCCTCTCACTGTGCTAG | 0.739
GACGTTATCGACACTGGGGACGTGCTA | -0.0523
TTAGGTACCGGTTTCGGTTAGTGCTAG | 6.01
TCATTTTTAGATATCTTACTGTGCTAG | 1.67
TCAGTTTTCTAAACCATACTGTGCTAG | 2.64
TTAGGTATCGGATTTCGGTTAGTGCTA | 3.93
CTATATTTGCTTCAGGTTTAGTGCTAG | 0.488
GTCGGTTTCGGTTCCGGGACGTGCTAG | 10.9
GTCTCTATCAAAAATACAAAAGTGCTA | 0.685
GACTGTTTCGGGTATCGGGACGTGCTA | 3.96
CATCCGTTTCTTCTAGACTTGTGCTAG | 2.96
GACGATTTCAGTTTCGAGAAGTGCTAG | 4.4
TTAGATTCCATTTTCGATTAGTGCTAG | 6.38
GACGGACTGGACCCTGGGGACGTGCTA | -0.81
